Measured values from different studies.
Protocols differ between the studies behind these lines. Values joined by “and” are separate records of one study, mostly repeats; a detail may differ. ± marks the error that the study gave. In brackets after ≈: the same amount, converted by molar mass.

Compound | organism | test | system | conditions | scale | endpoint | value
FC(F)(F)c1cccc(Nc2c(-c3ccccn3)nc3ccccn23)c1 | Leishmania infantum |  | macrophages, MHOM/MA(BE)/67/ITMAP263, amastigote |  |  | IC50 | 8.06 µM and 5.08 µM
Clc1ccc(N/N=C/c2ccc(-c3ccc(/C=N/Nc4ccc(Cl)cc4)cc3)cc2)cc1 | Candida and Aspergillus |  |  | concentration not given, strain panel |  | antifungal activity | inactive
Cc1ccc2nc(-c3ccccn3)c(CN(CC(C)C)c3cccc(C(F)(F)F)c3)n2c1 | Leishmania infantum |  | macrophages, MHOM/MA(BE)/67/ITMAP263, amastigote |  |  | IC50 | 3.53 µM and 5.98 µM
COC(=O)[C@H](Cc1c[nH]c2ccccc12)NCc1cc2ccccc2nc1SC | Pseudomonas aeruginosa |  |  | 4 µg/mL, with: pentamidine 50 µM | relative to: control | growth | 97%
CO[C@H]1[C@H](O[C@H]([C@H]2O[C@@H](n3ccc(=O)[nH]c3=O)[C@H](O)[C@@H]2O)[C@H](NCCCNC(=O)[C@@H](NC(=O)[C@@H](NC(=O)N[C@H](C(=O)O)C(C)C)[C@@H]2CCN=C(N)N2)[C@@H](OC(=O)CCCCCCCCCCCCN(O)C(=N)N)C(C)C)C(=O)O)O[C@H](CN)[C@H]1O | Bacillus cereus | microplate alamar blue | NRRL B-568 |  |  | MIC90 | > 35 µg/mL
CC(C)c1ccc(/C=C2\N/C(=N/c3ccccc3)N(N)C2=O)cc1 | Bacillus cereus |  | ATCC 14579 | concentration not given |  | inhibition zone diameter | 12 ± 0.46 mm
Cc1cc(OC(C)C)ccc1C(=O)C(C)(C)NC(=O)c1sccc1C | Alternaria alternata | mycelial growth | apple pathotype, PSA medium | 20 °C, suspension concentrate 400 g/L |  | EC50 | 0.99 µg/mL
O=C(/C=C/c1ccc(O)c(O)c1)O[C@@H]1C[C@](O)(C(=O)O)C[C@@H](O)[C@H]1O | human immunodeficiency virus 1 | viral replication | TZM-bl cells, NL4-3 (CXCR4-tropic) | 48 h |  | IC50 | > 100 µM
CC(C)n1ncc2c(C(=O)NCC3(C)CNC3)cc(C3CC3)nc21 | Enterovirus D68 | cytopathic effect | RD, US/MO/14-18949 | 150 nM |  | cell protection | -0.137% and 0.137% and -0.273%
COc1cc(N)c(NS(=O)(=O)c2ccc(N(C)C)cc2)cc1OC | Leishmania infantum | intracellular amastigote growth | U-937 macrophages and HeLa |  | relative to: IC50 HeLa over IC50 amastigotes | selectivity index | > 1.2
N#Cc1ccc(N2CCN(S(=O)(=O)c3ccc(F)cc3)CC2)cc1NCc1ccncc1 | Aedes aegypti |  |  | 100 µM, 24 h, first instar larvae |  | larval mortality | ~42%
O=C1/C(=C/c2ccco2)CCC/C1=C\c1ccco1 | Aedes aegypti | larval mortality | fourth instar larvae | 72 h |  | LC50 | 20.1 µM
CC(C)CCN(c1ccc(F)cc1)c1c(-c2ccccn2)nc2ccccn12 | Leishmania infantum |  | macrophages, MHOM/MA(BE)/67/ITMAP263, amastigote |  |  | IC50 | 0.59 µM and 0.54 µM
COCC(=O)N1CCCC(C(=O)NCc2nc(-c3ccccc3)cs2)C1 (racemic) | Plasmodium falciparum |  | Dd2 | concentration not given |  | EC50 | 0.11 µM
Fc1cc(F)cc(Nc2c(-c3ccccn3)nc3ccccn23)c1 | Leishmania infantum |  | macrophages, MHOM/MA(BE)/67/ITMAP263, amastigote |  |  | IC50 | 3.53 µM and 6.56 µM
COC[C@H]1O[C@@H]2O[C@H]3[C@H](OC)[C@@H](OC)[C@@H](O[C@H]4[C@H](OC)[C@@H](OC)[C@@H](O[C@H]5[C@H](OC)[C@@H](OC)[C@@H](O[C@H]6[C@H](OC)[C@@H](OC)[C@@H](O[C@H]7[C@H](OC)[C@@H](OC)[C@@H](O[C@H]8[C@H](OC)[C@@H](OC)[C@@H](O[C@H]1[C@H](OC)[C@H]2OC)O[C@@H]8COC)O[C@@H]7COC)O[C@@H]6COC)O[C@@H]5COC)O[C@@H]4COC)O[C@@H]3COC | Escherichia coli | LuxR reporter, antagonist | DH5α sensor strain | 40 µM, with: OHHL 200 nM |  | inhibition | 1 ± 3%
FC(F)(F)Oc1ccc(-c2c(-c3ccccn3)nc3n2CCC3)cc1 | Leishmania infantum |  | macrophages, MHOM/MA(BE)/67/ITMAP263, amastigote |  |  | IC50 | 1.29 µM and 0.35 µM
CC(=O)NC[C@H]1CN(c2ccc(N3CCOCC3)c(F)c2)C(=O)O1 | Staphylococcus epidermidis | broth microdilution | methicillin-resistant isolates |  |  | MIC90 | 4 µg/mL (≈ 11.9 µM)
Fc1cc(-c2c(-c3ccccn3)nc3n2CCC3)ccn1 | Leishmania infantum |  | macrophages, MHOM/MA(BE)/67/ITMAP263, amastigote |  |  | IC50 | 32.5 µM and 25.7 µM
CC1CCC(C(C)C)C(OC2=C(Cl)C(=O)c3ccccc3C2=O)C1 (centres unmarked) | Alternaria alternata |  | ITCC 4522 | 10 µg/mL |  | zone of inhibition | 17 mm

Repeated from above:
Compound | organism | test | system | conditions | scale | endpoint | value
COC(=O)[C@H](Cc1c[nH]c2ccccc12)NCc1cc2ccccc2nc1SC | Pseudomonas aeruginosa |  |  | 4 µg/mL, with: pentamidine 50 µM | relative to: control | growth | 97%
CO[C@H]1[C@H](O[C@H]([C@H]2O[C@@H](n3ccc(=O)[nH]c3=O)[C@H](O)[C@@H]2O)[C@H](NCCCNC(=O)[C@@H](NC(=O)[C@@H](NC(=O)N[C@H](C(=O)O)C(C)C)[C@@H]2CCN=C(N)N2)[C@@H](OC(=O)CCCCCCCCCCCCN(O)C(=N)N)C(C)C)C(=O)O)O[C@H](CN)[C@H]1O | Bacillus cereus | microplate alamar blue | NRRL B-568 |  |  | MIC90 | > 35 µg/mL
CC(C)c1ccc(/C=C2\N/C(=N/c3ccccc3)N(N)C2=O)cc1 | Bacillus cereus |  | ATCC 14579 | concentration not given |  | inhibition zone diameter | 12 ± 0.46 mm
